Published values from different studies.
Each line is one published result; not all experiments were run side by side. Several values in a cell are separate wells, animals, samples, runs or records.
PTGS2: Prostaglandin G/H synthase 2 (PTGS2, Homo sapiens, UniProt P35354)
UniProt P35354, sequence (whole entry, looked up): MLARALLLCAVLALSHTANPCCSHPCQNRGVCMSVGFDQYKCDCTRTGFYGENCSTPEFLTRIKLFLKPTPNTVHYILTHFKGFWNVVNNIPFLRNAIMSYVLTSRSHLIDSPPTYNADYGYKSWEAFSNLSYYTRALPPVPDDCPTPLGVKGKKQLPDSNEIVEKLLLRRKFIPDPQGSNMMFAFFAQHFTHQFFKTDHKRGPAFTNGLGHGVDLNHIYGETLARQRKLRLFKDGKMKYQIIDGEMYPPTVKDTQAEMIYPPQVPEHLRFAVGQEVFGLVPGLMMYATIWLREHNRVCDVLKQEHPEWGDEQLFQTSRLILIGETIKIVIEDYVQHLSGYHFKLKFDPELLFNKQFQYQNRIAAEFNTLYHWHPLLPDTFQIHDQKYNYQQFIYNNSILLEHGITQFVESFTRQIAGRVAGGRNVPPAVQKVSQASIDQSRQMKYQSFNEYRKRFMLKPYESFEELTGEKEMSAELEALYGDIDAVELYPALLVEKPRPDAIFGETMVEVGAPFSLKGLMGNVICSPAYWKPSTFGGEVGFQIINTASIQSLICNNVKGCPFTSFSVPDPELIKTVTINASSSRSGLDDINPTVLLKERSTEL
CPL: CPL (Toxoplasma gondii, UniProt Q6DMN0)
UniProt P62937, sequence (whole entry, looked up): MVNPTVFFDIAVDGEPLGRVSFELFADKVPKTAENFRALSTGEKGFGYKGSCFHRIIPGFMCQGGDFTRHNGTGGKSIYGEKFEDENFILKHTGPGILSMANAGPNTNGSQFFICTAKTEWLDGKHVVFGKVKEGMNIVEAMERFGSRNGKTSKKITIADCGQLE
UniProt P35462, sequence (whole entry, looked up): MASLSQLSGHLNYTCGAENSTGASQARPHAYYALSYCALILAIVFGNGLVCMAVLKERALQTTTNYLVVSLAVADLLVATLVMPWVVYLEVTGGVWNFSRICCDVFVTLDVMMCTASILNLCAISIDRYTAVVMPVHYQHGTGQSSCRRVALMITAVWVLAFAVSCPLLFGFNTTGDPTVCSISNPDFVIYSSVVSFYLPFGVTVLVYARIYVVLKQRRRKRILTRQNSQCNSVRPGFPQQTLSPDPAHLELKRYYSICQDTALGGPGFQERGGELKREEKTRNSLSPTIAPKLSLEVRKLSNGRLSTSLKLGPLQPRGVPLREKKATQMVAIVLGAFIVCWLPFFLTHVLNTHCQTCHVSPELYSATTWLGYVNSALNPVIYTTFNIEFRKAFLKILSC
UniProt Q01064, sequence (whole entry, looked up): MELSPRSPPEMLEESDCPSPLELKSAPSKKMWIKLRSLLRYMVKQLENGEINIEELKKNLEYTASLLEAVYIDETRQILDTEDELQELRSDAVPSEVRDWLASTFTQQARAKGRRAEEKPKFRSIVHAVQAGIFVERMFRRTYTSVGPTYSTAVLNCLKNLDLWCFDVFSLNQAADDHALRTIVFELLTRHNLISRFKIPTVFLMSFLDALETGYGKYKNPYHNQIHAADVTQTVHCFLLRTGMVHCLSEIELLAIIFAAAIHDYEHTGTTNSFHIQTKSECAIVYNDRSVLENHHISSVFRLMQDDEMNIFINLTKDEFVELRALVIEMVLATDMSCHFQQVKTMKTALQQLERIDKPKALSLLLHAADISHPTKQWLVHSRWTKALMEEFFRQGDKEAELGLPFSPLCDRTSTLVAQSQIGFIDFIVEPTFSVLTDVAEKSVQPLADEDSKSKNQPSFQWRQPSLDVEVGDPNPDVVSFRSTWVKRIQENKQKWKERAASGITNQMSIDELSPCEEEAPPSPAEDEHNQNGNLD
UniProt P28300, sequence (whole entry, looked up): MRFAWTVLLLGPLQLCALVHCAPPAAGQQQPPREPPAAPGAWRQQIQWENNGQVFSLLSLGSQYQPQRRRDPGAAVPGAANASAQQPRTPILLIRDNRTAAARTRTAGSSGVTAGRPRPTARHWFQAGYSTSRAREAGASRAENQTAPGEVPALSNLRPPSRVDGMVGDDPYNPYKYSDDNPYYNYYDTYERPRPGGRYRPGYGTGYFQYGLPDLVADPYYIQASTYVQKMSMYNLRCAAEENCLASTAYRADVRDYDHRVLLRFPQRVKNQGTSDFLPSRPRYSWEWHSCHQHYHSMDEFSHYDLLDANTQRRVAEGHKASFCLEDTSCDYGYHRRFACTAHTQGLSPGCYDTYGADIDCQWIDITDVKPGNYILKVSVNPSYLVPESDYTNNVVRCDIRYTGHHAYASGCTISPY
UniProt O00408, sequence (whole entry, looked up): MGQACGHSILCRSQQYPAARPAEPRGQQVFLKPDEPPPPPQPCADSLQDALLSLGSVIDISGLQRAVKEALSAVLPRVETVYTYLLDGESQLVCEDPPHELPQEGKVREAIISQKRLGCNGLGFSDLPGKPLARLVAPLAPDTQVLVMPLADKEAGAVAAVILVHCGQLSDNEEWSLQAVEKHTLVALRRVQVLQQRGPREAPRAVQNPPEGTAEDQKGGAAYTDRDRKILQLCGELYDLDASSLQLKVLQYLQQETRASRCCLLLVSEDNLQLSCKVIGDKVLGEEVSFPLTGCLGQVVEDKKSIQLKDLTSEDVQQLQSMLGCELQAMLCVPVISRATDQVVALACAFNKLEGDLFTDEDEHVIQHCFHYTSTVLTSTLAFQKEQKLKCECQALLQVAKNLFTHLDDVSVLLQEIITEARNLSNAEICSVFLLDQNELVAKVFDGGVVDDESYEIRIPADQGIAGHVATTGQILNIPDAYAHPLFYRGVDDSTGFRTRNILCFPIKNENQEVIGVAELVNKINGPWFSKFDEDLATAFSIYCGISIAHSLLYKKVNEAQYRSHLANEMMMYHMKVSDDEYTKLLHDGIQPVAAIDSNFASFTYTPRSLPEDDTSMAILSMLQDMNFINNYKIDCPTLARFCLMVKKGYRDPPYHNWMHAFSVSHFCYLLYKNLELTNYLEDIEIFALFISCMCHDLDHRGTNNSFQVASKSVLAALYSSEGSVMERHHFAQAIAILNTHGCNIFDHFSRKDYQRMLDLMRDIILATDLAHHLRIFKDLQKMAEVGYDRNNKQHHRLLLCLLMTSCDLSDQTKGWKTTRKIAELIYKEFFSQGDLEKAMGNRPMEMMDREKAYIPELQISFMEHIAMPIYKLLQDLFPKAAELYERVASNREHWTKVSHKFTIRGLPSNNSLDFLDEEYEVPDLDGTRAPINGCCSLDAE
UniProt P08575, sequence (whole entry, looked up): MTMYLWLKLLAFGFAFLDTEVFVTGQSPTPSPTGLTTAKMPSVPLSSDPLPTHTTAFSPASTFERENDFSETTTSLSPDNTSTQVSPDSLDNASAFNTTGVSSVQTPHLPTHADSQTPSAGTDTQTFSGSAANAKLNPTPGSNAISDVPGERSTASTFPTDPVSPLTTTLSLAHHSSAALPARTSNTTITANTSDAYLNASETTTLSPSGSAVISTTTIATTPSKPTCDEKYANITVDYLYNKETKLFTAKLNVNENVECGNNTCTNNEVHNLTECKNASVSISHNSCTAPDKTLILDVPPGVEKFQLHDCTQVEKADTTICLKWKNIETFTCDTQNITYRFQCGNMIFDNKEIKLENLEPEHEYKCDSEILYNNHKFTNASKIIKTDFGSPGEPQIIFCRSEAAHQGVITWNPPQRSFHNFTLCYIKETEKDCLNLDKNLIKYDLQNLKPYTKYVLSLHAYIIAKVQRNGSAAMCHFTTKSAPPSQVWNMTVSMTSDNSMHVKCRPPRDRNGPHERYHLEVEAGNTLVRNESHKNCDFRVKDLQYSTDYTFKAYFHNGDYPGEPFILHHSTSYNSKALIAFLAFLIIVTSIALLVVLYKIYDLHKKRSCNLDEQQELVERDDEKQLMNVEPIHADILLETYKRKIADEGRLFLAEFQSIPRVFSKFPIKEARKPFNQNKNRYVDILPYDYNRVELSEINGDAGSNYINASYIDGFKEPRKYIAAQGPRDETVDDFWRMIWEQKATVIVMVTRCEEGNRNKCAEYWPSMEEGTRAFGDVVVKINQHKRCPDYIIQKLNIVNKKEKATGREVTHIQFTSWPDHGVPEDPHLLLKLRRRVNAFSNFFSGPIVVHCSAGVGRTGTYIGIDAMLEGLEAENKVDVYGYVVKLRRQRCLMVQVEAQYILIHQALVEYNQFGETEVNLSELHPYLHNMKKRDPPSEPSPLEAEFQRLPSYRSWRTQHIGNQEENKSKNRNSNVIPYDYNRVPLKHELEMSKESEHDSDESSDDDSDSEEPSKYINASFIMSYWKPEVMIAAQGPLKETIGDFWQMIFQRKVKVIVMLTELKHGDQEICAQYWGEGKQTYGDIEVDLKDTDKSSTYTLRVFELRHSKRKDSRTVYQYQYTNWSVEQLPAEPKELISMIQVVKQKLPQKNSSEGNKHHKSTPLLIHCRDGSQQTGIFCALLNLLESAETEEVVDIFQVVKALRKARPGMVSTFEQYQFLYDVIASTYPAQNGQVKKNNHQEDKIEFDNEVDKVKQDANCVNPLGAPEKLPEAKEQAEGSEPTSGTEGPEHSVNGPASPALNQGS
UniProt P33533, sequence (whole entry, looked up): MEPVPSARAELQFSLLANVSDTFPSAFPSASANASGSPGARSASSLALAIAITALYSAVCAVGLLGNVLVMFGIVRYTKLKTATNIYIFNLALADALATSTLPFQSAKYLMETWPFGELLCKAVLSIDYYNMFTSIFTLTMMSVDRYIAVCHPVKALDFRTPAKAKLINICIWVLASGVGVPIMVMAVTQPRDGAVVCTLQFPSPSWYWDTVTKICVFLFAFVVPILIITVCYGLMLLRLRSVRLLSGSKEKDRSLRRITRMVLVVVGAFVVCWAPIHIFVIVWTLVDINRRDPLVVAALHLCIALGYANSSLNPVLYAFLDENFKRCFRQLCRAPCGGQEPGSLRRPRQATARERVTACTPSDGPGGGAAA

CC(C)[C@H](NC(=O)[C@H](CCC(=O)O)NC(=O)[C@@H](NC(=O)[C@@H](C)c1cccc(C(=O)c2ccccc2)c1)C(C)C)C(=O)N[C@@H](CCC(=O)O)C(=O)O  selectivity ratio (PTGS2; fluorescence; baseline: COX-1 IC50 over COX-2 IC50): 4.2
Cc1ccc2c(n1)c(-c1cccc(S(C)(=O)=O)c1)c(C)n2C/C(F)=C/CN  selectivity ratio (Protein-lysine 6-oxidase (Homo sapiens, UniProt P28300); inhibitor, Amplex Red; baseline: IC50 Protein-lysine 6-oxidase over IC50 LOXL2): > 80 fold
N[C@@H](CCC(=O)N[C@@H](CS[Se]Cc1ccc(C(=O)Nc2cc(C(F)(F)F)c(Br)c(C(F)(F)F)c2)cc1)C(=O)NCC(=O)O)C(=O)O  selectivity ratio (Receptor-type tyrosine-protein phosphatase C (PTPRC, Homo sapiens, UniProt P08575); enzyme activity; together with: pNPP, GSH 1 mM; baseline: IC50 PTPRC over mPTPA): > 100
Nc1nc(Cl)nc2c1ncn2Cc1cc(OCC(F)F)cc(OC(F)F)c1  selectivity ratio (cGMP-dependent 3',5'-cyclic phosphodiesterase (PDE2A, Homo sapiens, UniProt O00408); enzyme activity, inhibitor; baseline: PDE2A over PDE8A1): 392 fold
COc1ccccc1N1CCN(CCCCNC(=O)/N=N/c2ccc(F)cc2)CC1  selectivity ratio (D(3) dopamine receptor (DRD3, Homo sapiens, UniProt P35462); radioligand binding; CHO membranes; together with: [3H]spiperone; baseline: Ki 5-HT1A over Ki D3): 1.8
CC(C)CCN(Cc1cccnc1)c1nc(C#N)nc(N2CCOCC2)n1  selectivity ratio (CPL; enzyme activity, inhibitor; baseline: human over Toxoplasma IC50): 0.7
N#CC1=C(N)n2c(nnc2-c2ccccc2)NC1c1ccc(Br)cc1 (stereo not shown)  selectivity ratio (PTGS2; enzyme activity; baseline: IC50 COX-1 over IC50 COX-2): 13
CC(=O)c1cc2ccccc2oc1=Nc1nccs1  selectivity ratio (PTGS2; enzyme activity, inhibitor, enzyme immunoassay; baseline: IC50 COX-1 over IC50 COX-2): 3.03
CC(=O)OC1OC(OC(C)=O)C2CC(O)(C3(C)CCCC(C)(C)C3)CCC12 (stereo not shown)  selectivity ratio (Peptidyl-prolyl cis-trans isomerase A (PPIA, Homo sapiens, UniProt P62937); PPIase activity, inhibitor; baseline: CypD IC50 over target IC50): ~4 fold
Cc1ccc(C2Nc3nnc(-c4ccncc4)n3C(N)=C2C#N)cc1 (stereo not shown)  selectivity ratio (PTGS2; enzyme activity; baseline: IC50 COX-1 over IC50 COX-2): 5
N#Cc1nc(N2CCOCC2)nc(N(Cc2ccccc2[N+](=O)[O-])CC2CCCNC2)n1 (stereo not shown)  selectivity ratio (CPL; enzyme activity, inhibitor; baseline: human over Toxoplasma IC50): 0.3
N#CC1=C(N)n2c(nnc2-c2ccncc2)NC1c1ccc(Cl)cc1 (stereo not shown)  selectivity ratio (PTGS2; enzyme activity; baseline: IC50 COX-1 over IC50 COX-2): 11
CC(C)CCN(Cc1ccccc1[N+](=O)[O-])c1nc(C#N)nc(N2CCOCC2)n1  selectivity ratio (CPL; enzyme activity, inhibitor; baseline: human over Toxoplasma IC50): 3 and 3.6
COCCCN1CCc2c(Cc3ccc(Cl)cc3)[nH]c3c(OC(F)F)ccc(c23)C1=O  selectivity ratio (Dual specificity calcium/calmodulin-dependent 3',5'-cyclic nucleotide phosphodiesterase 1B (Homo sapiens, UniProt Q01064); enzyme activity, inhibitor; baseline: PDE1B IC50 over PDE5A1 IC50): 814
CC(C)CCN(Cc1ccncc1)c1nc(C#N)nc(N2CCOCC2)n1  selectivity ratio (CPL; enzyme activity, inhibitor; baseline: human over Toxoplasma IC50): 0.4
N[C@@H](Cc1ccc(C(=O)NCCc2ccc3ccccc3c2)cc1)C(=O)N1Cc2ccccc2C[C@H]1C(=O)N[C@@H](Cc1ccccc1)C(=O)N[C@@H](Cc1ccccc1)C(=O)O  selectivity ratio (Delta-type opioid receptor (Oprd1, Rattus norvegicus, UniProt P33533); binding, [3H]DSLET displacement; rat brain membranes; baseline: Ki mu over Ki delta): 250 to 520

A few entries again:
CC(C)CCN(Cc1ccncc1)c1nc(C#N)nc(N2CCOCC2)n1  selectivity ratio (CPL; enzyme activity, inhibitor; baseline: human over Toxoplasma IC50): 0.4
CC(C)CCN(Cc1cccnc1)c1nc(C#N)nc(N2CCOCC2)n1  selectivity ratio (CPL; enzyme activity, inhibitor; baseline: human over Toxoplasma IC50): 0.7
